Published values pooled from the literature.
Each line is one published result; not all experiments were run side by side. Values joined by “and” are separate records of one study, mostly repeats; a detail may differ.
Cell line: NCI-H460

| SMILES | observed | technique | time | IC50 |
| --- | --- | --- | --- | --- |
| Oc1ccc(C#Cc2c(O)ccc3c2C(c2ccc(O)cc2)(c2ccc(O)cc2)c2cc(O)ccc2-3)cc1 | cell growth or viability | MTT | 48 h | 14.3 µM |
| O=C(NCc1cc(F)cc(F)c1)[C@@]1(O)CCN(c2ccc3[nH]ccc3c2)C1=O | cell growth or viability |  |  | 5.8 µM |
| CCC(=[NH+][Pt-2]1([Cl])([O]C(=O)CC(C)C)([O]C(=O)CC(C)C)[NH]CCC[NH]1)N(C)CCNc1c2ccccc2[nH+]c2ccccc12.O=[N+]([O-])O.O=[N+]([O-])O | cell proliferation | MTS | 72 h | < 0.01 µM and 0.0053 µM |
| Oc1ccc(C#Cc2cccc3c2C(c2ccc(O)cc2)(c2ccc(O)cc2)c2cc(O)ccc2-3)cc1 | cell growth or viability | MTT | 48 h | 11.7 µM |
| CC(=O)OC[C@H]1O[C@@H](Oc2ccc(C#[C][Pt+])cc2)[C@H](OC(C)=O)[C@@H](OC(C)=O)[C@@H]1OC(C)=O.O=S(=O)([O-])C(F)(F)F.c1ccc(-c2cccc(-c3ccccn3)n2)nc1 | cell growth or viability |  | 24 h | > 100 µM |
| CNS(=O)(=O)Nc1nccc(Cc2c(C)c3ccc(Oc4ncccc4F)cc3oc2=O)c1F | cell viability |  | 7 days | > 1 µM |
| CCCCCCCC/C=C/CCCCCCCC(=O)[O][Pt-2]1([OH])([Cl])([NH+]=C(CC)N(C)CCNc2c3ccccc3[nH+]c3ccccc23)[NH]CCC[NH]1.O=[N+]([O-])O.O=[N+]([O-])O | cell growth or viability | MTS | 72 h | 0.0337 µM |
| O=Cc1ccc(-c2ccc(O)cc2)c(C(=C2C=CC(=O)C=C2)c2ccc(O)cc2)c1C#Cc1ccc(O)cc1 | cell growth or viability | MTT | 48 h | 11.9 µM |
| CO[C@@H]1[C@@H](OC(=O)c2ccc(C)[nH]2)[C@@H](O)[C@H](Oc2ccc3c(O)c(NC(=O)c4c[nH]c(C(=O)Nc5c(O)c6ccc(O[C@@H]7OC(C)(C)[C@H](OC)[C@@H](OC(=O)c8ccc(C)[nH]8)[C@H]7O)c(C)c6oc5=O)c4C)c(=O)oc3c2C)OC1(C)C | cell growth or viability | ATP luminescence | 72 h | ~3.7 µM |
| CCC(=[NH+][Pt-2]1([OH])([OH])([Cl])[NH]CCC[NH]1)N(C)CCNc1c2ccccc2[nH+]c2ccccc12.O=[N+]([O-])O.O=[N+]([O-])O | cell growth or viability | MTS | 72 h | 0.0213 µM |
| O=C(O)c1ccc(-c2ccc(O)cc2)c2c1C=C(c1ccc(O)cc1)OC2(c1ccc(O)cc1)c1ccc(O)cc1 | cell growth or viability | MTT | 48 h | 7.02 µM |
| COc1cc(S(=O)(=O)Oc2ccc3[nH]c(C)cc3c2F)cc(OC)c1OC | cell growth or viability |  | 72 h | 0.00834 µM |
